Measured values of several laboratories.
EGFR del746-750: Epidermal growth factor receptor (EGFR, Homo sapiens, UniProt P00533, del746-750)
EGFR L858R/T790M: Epidermal growth factor receptor (EGFR, Homo sapiens, UniProt P00533, L858R/T790M)
EGFR: Epidermal growth factor receptor (EGFR, Homo sapiens, UniProt P00533)

Compound = CCN1CCN(Cc2ccc(NC(=O)c3ccc(C)c(NC(=O)c4cncc(-c5cccs5)c4)c3)cc2C(F)(F)F)CC1; target = EGFR del746-750; effect on = binding; technique = competition with immobilised ligand; tested at = 1 µM; remaining binding = 0.9%
Compound = COc1cc(Nc2nccc(-c3cnn4nc(OC)ccc34)n2)cc(C(F)(F)F)c1; target = EGFR del746-750; effect on = binding; tested at = 1 µM; remaining binding = 100%
Compound = C=CC(=O)N1CCc2ccc(-n3c(=O)ccc4cnc5ccc(-c6cnn(C)c6)cc5c43)cc21; target = Epidermal growth factor receptor (EGFR, Homo sapiens, UniProt P00533, L858R); technique = KINOMEscan; tested at = 1 µM; reference = DMSO control; remaining binding = 100%
Compound = CNC(=O)C1CCN(c2cc(C)c(F)cc2NC(=O)c2ccc(-c3cc(O)ccc3C)c(C)c2)CC1; target = EGFR L858R/T790M; effect on = binding; technique = competition with immobilised ligand; tested at = 1 µM; remaining binding = 56%
Compound = COc1c(Cl)cccc1Nc1c(-c2ccncc2C#C[C@@]2(C)CCCN2C(=O)/C=C/CN(C)C)[nH]c2c1C(=O)NCC2; target = EGFR L858R/T790M; effect on = cell-free assay; technique = competition with immobilised ligand; tested at = 3 µM; remaining binding = 2.1%
Compound = Nc1ncc2c(n1)-c1c([nH]c3ccc(C4=CCOCC4)cc13)CCC2; target = EGFR; effect on = binding; technique = competition with immobilised ligand; tested at = 1 µM; remaining binding = 100%
Compound = CCN1CCN(Cc2ccc(C(=O)Nc3ccc(C)c(NCc4cnc5[nH]ccc5c4OC)c3)cc2C(F)(F)F)CC1; target = Epidermal growth factor receptor (EGFR, Homo sapiens, UniProt P00533, T790M); effect on = binding; technique = competition with immobilised ligand; tested at = 1 µM; remaining binding = 39%
Compound = C=CC(=O)N1CCCC(n2c(=O)c3ncccc3n(Cc3ccc(Oc4ccccc4)cc3)c2=O)C1 (centres unmarked); target = Epidermal growth factor receptor (EGFR, Homo sapiens, UniProt P00533, del752-759); effect on = cell-free assay; technique = competition with immobilised ligand; tested at = 1 µM; remaining binding = 92%
Compound = Cc1ccc(-c2c(/C=C(\C#N)C(=O)NC(C)C)n(CCCO)c3ncnc(N)c23)cc1; target = EGFR; effect on = cell-free assay; technique = competition with immobilised ligand; tested at = 1 µM; remaining binding = 79%
Compound = CNC1C[S+]2CC[S+]3CC[S+](C1)[Ru-4]321([N]=C=S)[n]2c3ccc(OC)cc3c3c4c(c5cc(F)c[n+]1c5c32)C(=O)NC4=O (centres unmarked); target = EGFR del746-750; technique = KinomeScan; tested at = 0.1 µM; reference = untreated; remaining binding = 61%
Compound = CC(C)=CC1OC(C)(C)C2C=C3C(=O)C(Cl)=CC(O)C3C3C(O)C4OC4C(=O)C132 (centres unmarked); target = EGFR; effect on = cell-free assay; technique = competition with immobilised ligand; tested at = 10 µM; remaining binding = 86%

For quick reference, copied from above:
Compound = COc1cc(Nc2nccc(-c3cnn4nc(OC)ccc34)n2)cc(C(F)(F)F)c1; target = EGFR del746-750; effect on = binding; tested at = 1 µM; remaining binding = 100%
